Assay results from different studies.
A part holds a random share of what one study measured.
Chain of UniProt P27361 (whole entry, looked up): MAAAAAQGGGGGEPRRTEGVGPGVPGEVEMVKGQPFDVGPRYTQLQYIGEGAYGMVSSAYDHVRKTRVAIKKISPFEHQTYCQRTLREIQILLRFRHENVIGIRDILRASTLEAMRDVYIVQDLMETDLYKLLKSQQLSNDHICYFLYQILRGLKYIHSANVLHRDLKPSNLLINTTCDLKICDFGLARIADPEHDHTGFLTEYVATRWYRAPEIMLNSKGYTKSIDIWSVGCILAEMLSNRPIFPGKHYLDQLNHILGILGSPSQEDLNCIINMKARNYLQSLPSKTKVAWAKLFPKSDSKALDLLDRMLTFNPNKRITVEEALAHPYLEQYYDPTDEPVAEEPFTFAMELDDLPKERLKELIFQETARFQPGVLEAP
Chain of UniProt Q9Y6M4 (whole entry, looked up): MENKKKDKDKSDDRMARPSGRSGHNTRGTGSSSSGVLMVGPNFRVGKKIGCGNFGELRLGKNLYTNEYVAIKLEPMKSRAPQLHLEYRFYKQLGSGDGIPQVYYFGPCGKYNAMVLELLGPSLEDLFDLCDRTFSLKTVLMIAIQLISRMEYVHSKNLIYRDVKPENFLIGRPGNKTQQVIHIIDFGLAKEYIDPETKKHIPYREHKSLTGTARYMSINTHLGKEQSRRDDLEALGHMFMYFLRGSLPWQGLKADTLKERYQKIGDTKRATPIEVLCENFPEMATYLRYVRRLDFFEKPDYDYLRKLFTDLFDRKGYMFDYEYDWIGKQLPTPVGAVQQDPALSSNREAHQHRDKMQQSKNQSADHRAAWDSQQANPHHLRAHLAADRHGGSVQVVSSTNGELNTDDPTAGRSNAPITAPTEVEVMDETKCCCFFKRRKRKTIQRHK
Chain of UniProt P22607 (whole entry, looked up): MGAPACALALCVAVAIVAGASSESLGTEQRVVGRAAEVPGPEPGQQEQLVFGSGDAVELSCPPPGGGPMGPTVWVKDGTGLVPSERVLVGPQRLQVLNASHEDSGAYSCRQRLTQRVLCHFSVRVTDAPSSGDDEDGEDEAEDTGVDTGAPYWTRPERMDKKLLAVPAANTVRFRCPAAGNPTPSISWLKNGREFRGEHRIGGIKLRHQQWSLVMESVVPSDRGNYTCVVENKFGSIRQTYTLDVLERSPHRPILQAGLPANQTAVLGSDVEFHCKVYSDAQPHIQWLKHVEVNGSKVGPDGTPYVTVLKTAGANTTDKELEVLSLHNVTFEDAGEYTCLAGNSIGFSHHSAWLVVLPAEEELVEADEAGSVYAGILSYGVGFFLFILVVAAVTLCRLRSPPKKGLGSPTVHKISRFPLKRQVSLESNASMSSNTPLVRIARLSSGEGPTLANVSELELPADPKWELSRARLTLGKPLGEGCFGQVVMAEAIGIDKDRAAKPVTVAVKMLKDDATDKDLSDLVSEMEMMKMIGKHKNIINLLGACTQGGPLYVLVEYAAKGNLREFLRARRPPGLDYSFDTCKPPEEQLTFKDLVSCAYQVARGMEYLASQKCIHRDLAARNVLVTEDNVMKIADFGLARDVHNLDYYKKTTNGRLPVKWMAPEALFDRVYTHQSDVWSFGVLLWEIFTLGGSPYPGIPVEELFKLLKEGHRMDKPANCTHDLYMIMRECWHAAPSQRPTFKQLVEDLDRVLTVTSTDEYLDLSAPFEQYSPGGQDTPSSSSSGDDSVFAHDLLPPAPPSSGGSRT
Chain of UniProt Q96PY6 (whole entry, looked up): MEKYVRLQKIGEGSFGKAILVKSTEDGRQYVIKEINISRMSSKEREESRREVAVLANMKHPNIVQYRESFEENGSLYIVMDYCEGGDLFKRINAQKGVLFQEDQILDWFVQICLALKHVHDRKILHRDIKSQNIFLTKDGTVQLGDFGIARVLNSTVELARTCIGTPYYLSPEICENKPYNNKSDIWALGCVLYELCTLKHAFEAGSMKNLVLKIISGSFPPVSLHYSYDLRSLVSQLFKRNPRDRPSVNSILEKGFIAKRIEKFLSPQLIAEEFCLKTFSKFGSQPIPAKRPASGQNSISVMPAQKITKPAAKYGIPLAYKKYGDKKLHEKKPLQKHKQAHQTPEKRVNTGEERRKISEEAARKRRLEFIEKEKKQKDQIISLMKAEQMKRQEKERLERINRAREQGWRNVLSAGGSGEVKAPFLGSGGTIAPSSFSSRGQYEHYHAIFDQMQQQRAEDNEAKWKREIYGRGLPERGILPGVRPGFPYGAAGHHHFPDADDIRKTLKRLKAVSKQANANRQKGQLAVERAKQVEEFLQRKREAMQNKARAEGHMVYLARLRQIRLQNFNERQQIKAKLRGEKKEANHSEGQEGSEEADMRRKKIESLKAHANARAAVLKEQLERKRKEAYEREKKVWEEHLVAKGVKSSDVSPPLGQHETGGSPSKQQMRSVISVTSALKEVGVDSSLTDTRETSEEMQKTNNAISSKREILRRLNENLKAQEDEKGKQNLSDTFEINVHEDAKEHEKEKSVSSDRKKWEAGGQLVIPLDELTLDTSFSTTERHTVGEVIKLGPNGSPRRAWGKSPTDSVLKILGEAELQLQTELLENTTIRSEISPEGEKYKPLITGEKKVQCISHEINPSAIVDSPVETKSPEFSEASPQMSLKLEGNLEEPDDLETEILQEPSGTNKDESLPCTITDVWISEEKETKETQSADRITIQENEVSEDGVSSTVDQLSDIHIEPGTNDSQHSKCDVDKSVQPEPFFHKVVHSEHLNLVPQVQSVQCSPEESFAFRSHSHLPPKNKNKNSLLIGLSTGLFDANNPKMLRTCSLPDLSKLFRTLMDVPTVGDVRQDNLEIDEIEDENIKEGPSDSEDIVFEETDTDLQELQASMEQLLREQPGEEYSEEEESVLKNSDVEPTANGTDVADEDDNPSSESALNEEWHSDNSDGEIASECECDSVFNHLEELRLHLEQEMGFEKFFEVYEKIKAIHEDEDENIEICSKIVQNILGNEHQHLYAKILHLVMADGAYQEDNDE
Chain of UniProt Q8WTQ7 (whole entry, looked up): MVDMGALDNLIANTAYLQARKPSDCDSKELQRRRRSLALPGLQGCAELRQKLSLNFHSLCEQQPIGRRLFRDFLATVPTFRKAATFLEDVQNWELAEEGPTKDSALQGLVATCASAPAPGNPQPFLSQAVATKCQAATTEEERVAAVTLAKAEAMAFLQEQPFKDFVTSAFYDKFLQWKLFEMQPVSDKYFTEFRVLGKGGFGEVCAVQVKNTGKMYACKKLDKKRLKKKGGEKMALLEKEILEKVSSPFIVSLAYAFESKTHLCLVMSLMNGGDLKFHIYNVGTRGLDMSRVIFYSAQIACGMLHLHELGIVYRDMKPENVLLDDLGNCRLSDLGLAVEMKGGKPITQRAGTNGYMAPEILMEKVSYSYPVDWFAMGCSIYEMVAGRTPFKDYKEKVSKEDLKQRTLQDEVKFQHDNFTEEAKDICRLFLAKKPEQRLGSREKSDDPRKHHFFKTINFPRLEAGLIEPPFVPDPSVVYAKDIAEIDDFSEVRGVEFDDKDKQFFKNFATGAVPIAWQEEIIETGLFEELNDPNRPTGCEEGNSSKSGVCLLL
Chain of UniProt Q15349 (whole entry, looked up): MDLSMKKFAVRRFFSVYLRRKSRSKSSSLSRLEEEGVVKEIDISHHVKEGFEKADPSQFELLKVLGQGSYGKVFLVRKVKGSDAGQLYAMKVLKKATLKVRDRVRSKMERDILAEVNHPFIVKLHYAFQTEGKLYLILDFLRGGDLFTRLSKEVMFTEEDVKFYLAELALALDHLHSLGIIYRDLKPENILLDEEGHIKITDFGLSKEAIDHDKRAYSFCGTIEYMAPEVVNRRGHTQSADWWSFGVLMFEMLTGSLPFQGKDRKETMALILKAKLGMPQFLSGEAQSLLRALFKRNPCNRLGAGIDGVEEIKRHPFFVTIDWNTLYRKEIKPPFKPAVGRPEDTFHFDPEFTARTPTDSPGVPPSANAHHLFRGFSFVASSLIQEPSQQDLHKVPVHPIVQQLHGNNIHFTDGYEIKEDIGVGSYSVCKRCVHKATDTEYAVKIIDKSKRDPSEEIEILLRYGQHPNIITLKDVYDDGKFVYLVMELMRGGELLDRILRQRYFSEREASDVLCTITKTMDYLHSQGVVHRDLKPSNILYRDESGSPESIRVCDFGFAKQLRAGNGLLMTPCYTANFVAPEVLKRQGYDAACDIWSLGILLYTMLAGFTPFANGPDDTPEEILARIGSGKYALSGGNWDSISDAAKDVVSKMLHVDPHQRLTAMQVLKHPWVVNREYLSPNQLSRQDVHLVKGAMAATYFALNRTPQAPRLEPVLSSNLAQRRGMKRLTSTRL
Chain of UniProt Q9HC98 (whole entry, looked up): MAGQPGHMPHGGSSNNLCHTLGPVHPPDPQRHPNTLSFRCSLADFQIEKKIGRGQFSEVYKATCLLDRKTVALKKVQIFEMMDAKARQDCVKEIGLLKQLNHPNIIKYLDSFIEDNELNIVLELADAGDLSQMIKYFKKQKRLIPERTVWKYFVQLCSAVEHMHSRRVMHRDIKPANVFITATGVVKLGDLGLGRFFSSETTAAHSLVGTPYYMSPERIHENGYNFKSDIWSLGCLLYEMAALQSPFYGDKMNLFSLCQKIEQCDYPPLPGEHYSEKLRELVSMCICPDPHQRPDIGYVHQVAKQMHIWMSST

Series 1 — Structure (SMILES): O=c1cc(N2CCOCC2)oc2c(-c3ccccc3)cccc12; read-out: enzyme activity; action: inhibitor; tested at: 0.5 µM; reference: control
target	remaining activity [%]
NEK1 (Homo sapiens, UniProt Q96PY6)	86.7
ULK2 (Homo sapiens, UniProt Q8IYT8)	113
FGFR1 (Homo sapiens, UniProt P11362)	96.6
ARAF (Homo sapiens, UniProt P10398)	105
MAP3K5 (Homo sapiens, UniProt Q99683)	96.2
MAP2K2 (Homo sapiens, UniProt P36507)	96.8
FGFR3 (Homo sapiens, UniProt P22607)	95.9
NEK6 (Homo sapiens, UniProt Q9HC98)	112
MAPK3 (Homo sapiens, UniProt P27361)	104
CSNK1G3 (Homo sapiens, UniProt Q9Y6M4)	92.4
MAP3K14 (Homo sapiens, UniProt Q99558)	101
GRK7 (Homo sapiens, UniProt Q8WTQ7)	112
RPS6KA2 (Homo sapiens, UniProt Q15349)	92.4

Series 2 — technique: aptamer microarray, sandwich; molecule type: DNA with 2'F-ANA; medium: in vitro; tested at: 200 nM; with: Cy3 exosite-II aptamer, 400 nM; direction: higher = stronger binding; strand: GGTTGGTGTGGTTGG
Target: Prothrombin, mature alpha-thrombin (F2, Homo sapiens, UniProt P00734)
Notes: whole 15-mer aptamer, many near background
Modification	mean fluorescence intensity
2'F-ANA at 1 3 4 6 7 9 12	355 a.u.
2'F-ANA at 3 6 7 9 12 13	1050 a.u.
2'F-ANA at 3 4 6 7 8 10 12	341 a.u.
2'F-ANA at 2 3 5 6 7 8 12 14 15	64.3 a.u.
2'F-ANA at 2 5 6 7 10 11 13 15	49.8 a.u.
2'F-ANA at 6 14	206 a.u.
2'F-ANA at 3 4 8 9 13	521 a.u.
2'F-ANA at 5 6 8 9 11 14	56.7 a.u.

Series 3 — read-out: binding; technique: radioligand binding; tested at: 10 µM
Target: Alpha-2B adrenergic receptor (ADRA2B, Homo sapiens, UniProt P18089)
Chain of UniProt P18089 (whole entry, looked up): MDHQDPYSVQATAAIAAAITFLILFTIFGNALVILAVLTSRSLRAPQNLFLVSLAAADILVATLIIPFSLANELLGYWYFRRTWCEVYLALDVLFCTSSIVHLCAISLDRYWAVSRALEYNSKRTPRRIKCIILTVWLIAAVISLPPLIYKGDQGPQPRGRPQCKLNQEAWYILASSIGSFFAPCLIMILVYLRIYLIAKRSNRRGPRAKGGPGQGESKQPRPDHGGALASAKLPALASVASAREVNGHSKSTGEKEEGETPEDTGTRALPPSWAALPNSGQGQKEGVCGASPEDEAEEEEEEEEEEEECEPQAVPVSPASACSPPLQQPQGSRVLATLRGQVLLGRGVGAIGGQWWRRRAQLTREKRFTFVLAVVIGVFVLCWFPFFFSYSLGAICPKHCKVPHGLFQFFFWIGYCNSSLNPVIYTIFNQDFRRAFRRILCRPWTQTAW
Structure (SMILES)	inhibition [%]
O=C1CCc2cc(Nc3cc(OC4CCOCC4)c([N+](=O)[O-])cc3Cl)ccc2N1	-0.04
CC(C)CC(=O)N1CCc2nc(-c3ccc(Br)cc3)nc(N(C)Cc3ccccc3)c2C1	29
CNC(=O)c1ccc(Nc2ncc(C(F)(F)F)c(NCc3nccnc3N(C)S(C)(=O)=O)n2)cc1	5.76
Nc1c(C(=O)NCc2ccc(C(=O)NCCCC3CCCCC3)cc2)cnn1-c1ccccc1	17.7
CC(=O)Nc1nc(CN2CCC[C@H](Cc3cc(C)nc(C)c3)C2)cs1	59.1
Cc1nc(N2CC[C@@H](O)C2)ncc1-c1cc(C(F)(F)F)cc2[nH]ncc12	12.5

Series 4 — technique: protein binding microarray; molecule type: double-stranded DNA, one strand shown; medium: in vitro; tested at: not given; reference: not given; direction: higher = stronger binding
Target: Histone acetyltransferase KAT6A, winged helix 1, GST fusion (KAT6A, Homo sapiens, UniProt Q92794, residues 1-85)
Notes: 8-mer, flanks averaged, mean of 2 arrays, mostly near background
Construct (chain): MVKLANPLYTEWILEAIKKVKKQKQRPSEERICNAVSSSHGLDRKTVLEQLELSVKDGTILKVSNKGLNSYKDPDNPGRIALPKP
Strand	E-score
CAGCTCGG	0.0095
GTGTGTGA	-0.173
AGCATTGC	0.0129
AGTCACGA	-0.238
GGGAGCCA	-0.0122
CAGTAAGG	0.0506
ACGTCAGT	-0.15
GATTCCGC	0.179

A few entries again (series 1):
target	remaining activity [%]
MAP2K2 (Homo sapiens, UniProt P36507)	96.8
NEK6 (Homo sapiens, UniProt Q9HC98)	112
CSNK1G3 (Homo sapiens, UniProt Q9Y6M4)	92.4
RPS6KA2 (Homo sapiens, UniProt Q15349)	92.4
